# Results from different studies.
# Parts stem from different laboratories: compare values within a part only.
# Sequence of UniProt Q9Y5S2 (whole entry, looked up): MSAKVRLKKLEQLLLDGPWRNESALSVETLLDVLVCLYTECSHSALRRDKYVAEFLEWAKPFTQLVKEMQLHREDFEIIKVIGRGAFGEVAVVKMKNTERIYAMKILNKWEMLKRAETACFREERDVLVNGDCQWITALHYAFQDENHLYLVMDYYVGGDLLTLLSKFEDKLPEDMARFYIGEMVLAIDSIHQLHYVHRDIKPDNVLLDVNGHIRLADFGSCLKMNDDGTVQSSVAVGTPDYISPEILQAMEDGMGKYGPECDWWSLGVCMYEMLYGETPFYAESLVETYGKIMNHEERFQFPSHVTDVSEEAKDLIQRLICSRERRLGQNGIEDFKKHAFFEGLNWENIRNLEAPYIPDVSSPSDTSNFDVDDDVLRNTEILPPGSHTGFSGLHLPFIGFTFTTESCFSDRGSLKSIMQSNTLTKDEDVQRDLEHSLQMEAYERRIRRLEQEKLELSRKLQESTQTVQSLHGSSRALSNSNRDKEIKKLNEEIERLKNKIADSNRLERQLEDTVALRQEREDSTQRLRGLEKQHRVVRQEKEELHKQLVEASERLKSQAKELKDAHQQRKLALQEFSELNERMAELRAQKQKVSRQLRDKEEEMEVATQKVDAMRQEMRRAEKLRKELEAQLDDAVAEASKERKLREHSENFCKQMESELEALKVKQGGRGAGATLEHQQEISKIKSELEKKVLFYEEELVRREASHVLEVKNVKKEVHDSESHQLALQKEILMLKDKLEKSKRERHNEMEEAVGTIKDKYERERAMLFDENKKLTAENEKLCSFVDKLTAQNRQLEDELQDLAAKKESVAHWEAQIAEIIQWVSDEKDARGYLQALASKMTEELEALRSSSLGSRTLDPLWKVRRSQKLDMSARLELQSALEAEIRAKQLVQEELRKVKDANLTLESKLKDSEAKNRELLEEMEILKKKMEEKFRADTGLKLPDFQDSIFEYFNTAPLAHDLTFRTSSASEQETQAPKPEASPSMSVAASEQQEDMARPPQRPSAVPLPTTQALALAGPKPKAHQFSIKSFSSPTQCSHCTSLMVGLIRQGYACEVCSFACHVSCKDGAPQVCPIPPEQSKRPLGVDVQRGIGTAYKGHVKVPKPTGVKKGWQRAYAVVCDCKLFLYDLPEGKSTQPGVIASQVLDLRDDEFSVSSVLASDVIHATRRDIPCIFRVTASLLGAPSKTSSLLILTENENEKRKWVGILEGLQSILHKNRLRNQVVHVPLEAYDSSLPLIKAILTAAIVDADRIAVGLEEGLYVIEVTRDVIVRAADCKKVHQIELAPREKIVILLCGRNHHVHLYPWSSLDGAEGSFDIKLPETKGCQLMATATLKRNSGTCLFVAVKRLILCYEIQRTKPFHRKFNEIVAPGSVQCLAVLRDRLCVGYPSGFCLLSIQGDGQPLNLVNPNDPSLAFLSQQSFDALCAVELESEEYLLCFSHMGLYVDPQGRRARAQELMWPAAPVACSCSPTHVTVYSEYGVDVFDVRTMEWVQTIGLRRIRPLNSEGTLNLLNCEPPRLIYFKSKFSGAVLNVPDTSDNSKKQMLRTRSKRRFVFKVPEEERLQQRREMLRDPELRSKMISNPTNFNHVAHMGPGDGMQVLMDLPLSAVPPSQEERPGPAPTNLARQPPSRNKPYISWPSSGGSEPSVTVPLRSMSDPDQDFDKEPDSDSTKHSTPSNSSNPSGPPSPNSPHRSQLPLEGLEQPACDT
# Sequence of UniProt O14730 (whole entry, looked up): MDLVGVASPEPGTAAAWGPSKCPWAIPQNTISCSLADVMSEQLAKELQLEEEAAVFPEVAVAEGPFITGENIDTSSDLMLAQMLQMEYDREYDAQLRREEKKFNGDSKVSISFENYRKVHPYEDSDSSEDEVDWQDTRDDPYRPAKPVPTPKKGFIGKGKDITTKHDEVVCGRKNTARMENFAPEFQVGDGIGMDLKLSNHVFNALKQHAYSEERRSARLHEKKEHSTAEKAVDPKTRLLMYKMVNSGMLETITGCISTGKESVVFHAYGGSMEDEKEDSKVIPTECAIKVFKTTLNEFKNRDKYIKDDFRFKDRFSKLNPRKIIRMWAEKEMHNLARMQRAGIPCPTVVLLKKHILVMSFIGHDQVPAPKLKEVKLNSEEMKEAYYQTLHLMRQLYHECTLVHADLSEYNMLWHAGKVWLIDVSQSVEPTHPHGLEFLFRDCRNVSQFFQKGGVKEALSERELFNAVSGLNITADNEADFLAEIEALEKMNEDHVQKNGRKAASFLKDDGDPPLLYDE
# Sequence of UniProt P16234 (whole entry, looked up): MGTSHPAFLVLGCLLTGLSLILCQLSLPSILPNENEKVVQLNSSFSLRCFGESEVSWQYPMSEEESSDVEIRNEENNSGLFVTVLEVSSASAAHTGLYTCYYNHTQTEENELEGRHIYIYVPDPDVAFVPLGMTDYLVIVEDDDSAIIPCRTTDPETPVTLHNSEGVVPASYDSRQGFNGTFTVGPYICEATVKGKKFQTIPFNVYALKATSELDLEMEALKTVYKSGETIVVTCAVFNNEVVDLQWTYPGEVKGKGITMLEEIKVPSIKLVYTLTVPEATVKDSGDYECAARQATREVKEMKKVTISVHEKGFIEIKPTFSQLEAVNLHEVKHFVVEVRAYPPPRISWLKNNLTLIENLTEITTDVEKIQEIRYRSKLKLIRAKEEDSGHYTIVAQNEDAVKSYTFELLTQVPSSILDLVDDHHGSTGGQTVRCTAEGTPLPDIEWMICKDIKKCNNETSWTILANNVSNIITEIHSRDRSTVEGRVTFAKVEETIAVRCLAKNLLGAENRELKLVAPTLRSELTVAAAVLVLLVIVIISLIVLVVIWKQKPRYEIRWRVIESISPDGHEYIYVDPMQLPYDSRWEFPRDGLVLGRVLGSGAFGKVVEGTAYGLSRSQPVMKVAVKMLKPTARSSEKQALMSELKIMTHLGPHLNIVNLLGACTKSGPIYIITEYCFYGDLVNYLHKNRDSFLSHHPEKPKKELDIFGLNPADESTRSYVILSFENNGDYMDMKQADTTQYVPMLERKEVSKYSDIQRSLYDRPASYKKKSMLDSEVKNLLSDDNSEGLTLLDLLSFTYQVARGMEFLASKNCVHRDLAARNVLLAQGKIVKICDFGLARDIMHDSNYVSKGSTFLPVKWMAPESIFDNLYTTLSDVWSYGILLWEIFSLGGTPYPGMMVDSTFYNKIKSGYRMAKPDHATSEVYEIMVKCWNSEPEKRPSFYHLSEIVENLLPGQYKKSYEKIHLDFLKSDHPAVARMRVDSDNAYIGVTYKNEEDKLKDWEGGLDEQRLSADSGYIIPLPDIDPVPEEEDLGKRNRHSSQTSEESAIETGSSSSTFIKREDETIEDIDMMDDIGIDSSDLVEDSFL
# Sequence of UniProt Q9UQM7 (whole entry, looked up): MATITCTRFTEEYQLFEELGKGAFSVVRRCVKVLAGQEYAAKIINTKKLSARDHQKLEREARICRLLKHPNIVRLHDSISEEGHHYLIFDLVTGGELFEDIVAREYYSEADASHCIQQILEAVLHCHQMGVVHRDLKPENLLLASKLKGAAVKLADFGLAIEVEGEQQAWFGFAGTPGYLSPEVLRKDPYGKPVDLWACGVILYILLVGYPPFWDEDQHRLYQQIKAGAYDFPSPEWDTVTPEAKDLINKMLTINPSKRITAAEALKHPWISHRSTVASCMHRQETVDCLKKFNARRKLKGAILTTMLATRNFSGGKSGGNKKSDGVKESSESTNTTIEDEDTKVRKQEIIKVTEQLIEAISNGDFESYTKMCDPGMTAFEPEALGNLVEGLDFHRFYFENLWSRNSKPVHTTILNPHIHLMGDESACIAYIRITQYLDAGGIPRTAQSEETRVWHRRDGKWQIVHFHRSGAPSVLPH
# Sequence of UniProt P27037 (whole entry, looked up): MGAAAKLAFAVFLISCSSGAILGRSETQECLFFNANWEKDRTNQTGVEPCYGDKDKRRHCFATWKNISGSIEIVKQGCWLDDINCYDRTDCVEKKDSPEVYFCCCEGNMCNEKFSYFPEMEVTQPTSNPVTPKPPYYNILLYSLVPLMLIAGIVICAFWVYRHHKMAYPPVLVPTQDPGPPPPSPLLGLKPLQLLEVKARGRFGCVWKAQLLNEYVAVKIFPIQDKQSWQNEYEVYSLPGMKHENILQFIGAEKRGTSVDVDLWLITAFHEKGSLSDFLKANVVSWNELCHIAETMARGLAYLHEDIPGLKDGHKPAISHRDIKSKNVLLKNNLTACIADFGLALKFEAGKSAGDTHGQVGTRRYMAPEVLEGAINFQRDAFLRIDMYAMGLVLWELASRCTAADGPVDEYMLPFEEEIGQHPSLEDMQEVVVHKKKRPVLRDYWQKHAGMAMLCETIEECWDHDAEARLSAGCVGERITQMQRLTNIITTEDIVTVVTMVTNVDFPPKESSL

# Series 1
# Structure (SMILES): O=C(O)[C@H]1[C@H](Cn2nnc3ccccc3c2=O)CC[C@@H]1C(=O)c1ccc(OCCC2CCOCC2)cc1
# Method: competition with immobilised ligand
# Tested at: 1 µM
target,test,remaining binding [%]
"FLT3 (Homo sapiens, UniProt P36888, N841I)",cell-free assay,85
"PDGFRA (Homo sapiens, UniProt P16234)",cell-free assay,100
"CDC42BPB (Homo sapiens, UniProt Q9Y5S2)",cell-free assay,100
"Tyrosine-protein kinase ABL1, phosphorylated (ABL1, Homo sapiens, UniProt P00519, E255K)",binding,75
"DYRK1B (Homo sapiens, UniProt Q9Y463)",cell-free assay,100
"PKMYT1 (Homo sapiens, UniProt Q99640)",cell-free assay,96
"RIOK3 (Homo sapiens, UniProt O14730)",cell-free assay,79
"Tyrosine-protein kinase ABL1, phosphorylated (ABL1, Homo sapiens, UniProt P00519, M351T)",cell-free assay,82
"CAMK2A (Homo sapiens, UniProt Q9UQM7)",cell-free assay,100
"ACVR2A (Homo sapiens, UniProt P27037)",cell-free assay,87
"CDK4 (Homo sapiens, UniProt P11802)",cell-free assay,96

# Series 2
# Cell line: A-375
# Tested at: 100 µM
# Time: 36 h
Structure (SMILES),viability [%]
COc1ccc(O)cc1,110
O=c1[nH]cc(F)c(=O)[nH]1,57.8
CN(C)c1cc(NC(=O)CNC(C)(C)C)c(O)c2c1C[C@H]1C[C@H]3[C@H](N(C)C)C(O)=C(C(N)=O)C(=O)[C@@]3(O)C(O)=C1C2=O,101
CN1C(C(=O)Nc2ccccn2)=C(O)c2ccccc2S1(=O)=O,103
OCC(O)CN1CCN(c2ccccc2)CC1 (stereo not shown),77.9
CCN(CC)CCOCCOC(=O)C1(c2ccccc2)CCCC1,103
Cc1ccsc1C(=CCCN1CCC[C@@H](C(=O)O)C1)c1sccc1C,91.5
NC(CO)(CO)CO,107
Cc1cc2c(cc1S(N)(=O)=O)S(=O)(=O)CCC2,123
O=C(O)c1ccccc1C(=O)Nc1ccc(S(=O)(=O)Nc2nccs2)cc1,125
Cc1cncc(CN2CCC(=C3c4ccc(Cl)cc4CCc4cccnc43)CC2)c1,1.37

# Series 3
# Target: Mitogen-activated protein kinase kinase kinase 8 (MAP3K8, Homo sapiens, UniProt P41279)
# Sequence of UniProt P41279 (whole entry, looked up): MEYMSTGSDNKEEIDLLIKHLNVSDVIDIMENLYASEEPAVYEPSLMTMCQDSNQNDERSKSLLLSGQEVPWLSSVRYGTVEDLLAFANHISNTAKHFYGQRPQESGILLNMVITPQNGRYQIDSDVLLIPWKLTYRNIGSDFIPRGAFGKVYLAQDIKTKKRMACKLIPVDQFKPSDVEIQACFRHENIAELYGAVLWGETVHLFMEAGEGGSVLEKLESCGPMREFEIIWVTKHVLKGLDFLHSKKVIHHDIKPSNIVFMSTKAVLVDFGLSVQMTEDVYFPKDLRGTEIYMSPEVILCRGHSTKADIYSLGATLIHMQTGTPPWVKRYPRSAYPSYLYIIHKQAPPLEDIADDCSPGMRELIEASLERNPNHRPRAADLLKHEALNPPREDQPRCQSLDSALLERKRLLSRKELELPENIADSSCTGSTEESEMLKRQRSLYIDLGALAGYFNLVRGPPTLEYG
# Effect on: enzyme activity
# Mode: inhibitor
# Tested at: 0.5 µM
# Relative to: control
SMILES,remaining activity
COc1ccc(COc2ccc(Cc3cnc(N)nc3N)cc2OC)cc1,98.4%
Cc1ccc(S(=O)(=O)/C=C/C#N)cc1,96.2%
c1ccc(-c2n[nH]c3c2oc2ccccc23)cc1,105%
COc1cc2c(N3CCN(C(=O)Nc4ccc(OC(C)C)cc4)CC3)ncnc2cc1OCCCN1CCCCC1,93.2%
O=C(c1cc2cc(O)ccc2[nH]1)c1cc2cc(O)ccc2[nH]1,93%
O=Nc1c(-c2c(O)[nH]c3cc(Br)ccc23)[nH]c2ccccc12,101%
Nc1nc(Nc2ccc(S(N)(=O)=O)cc2)nn1C(=S)Nc1c(F)cccc1F,127%
O=C1NC(=O)c2c1c1c3ccccc3[nH]c1c1[nH]c3cc(Br)ccc3c21,89%
O=Nc1c(-c2c(O)[nH]c3ccccc23)[nH]c2ccccc12,106%
Clc1ccc(Nc2nnc(Cc3ccncc3)c3ccccc23)cc1,98.2%
COc1cc2c(Nc3ccc(Br)cc3F)ncnc2cc1OCC1CCN(C)CC1,97.3%
CC(C)N(CCC(=O)c1ccc2ccccc2c1)Cc1ccccc1,94.6%
COc1ccc2c(c1)c(C1=C(c3c[nH]c4ccccc34)C(=O)NC1=O)cn2CCCN(C)C,93.8%
c1cc(-c2cnn3cc(-c4ccc(OCCN5CCCCC5)cc4)cnc23)ccn1,104%
CCCCc1c(-c2ccc(O)cc2)[nH]c2nccnc12,111%
CN1CCN(c2ccc3nc(-c4c(N)c5c(F)cccc5[nH]c4=O)[nH]c3c2)CC1,107%
CC(C)(C)c1nc2c3cc[nH]c(=O)c3c3cc(F)ccc3c2[nH]1,128%
COc1cccc(-c2cc(=O)c3ccccc3o2)c1N,85.7%
O=C1Cc2c([nH]c3ccc(Br)cc23)-c2ccccc2N1,98.6%
CCCNC(=O)Nc1ccc(Oc2ncnc3cc(OC)c(OC)cc23)cc1Cl,104%
c1ccc2c(-c3ccncc3)c[nH]c2c1,99%
O=C(O)/C=C/c1cc(Br)c(Br)c(Br)c1Br,83%
CNc1cc2c(Nc3cccc(Br)c3)ncnc2cn1,90.2%
O=C1Nc2ccc(Br)cc2/C1=C/c1cc2c([nH]1)CCCC2,105%
N#C/C(=C(/N)SC1C=CC=CC1)c1cccc(C(O)c2ccncc2)c1 (stereo not shown),79.8%

# Series 4
# SMILES: CC(C)S(=O)(=O)c1ccc2nccc(Nc3ccc4sc(C5CCCC5)nc4c3)c2c1
# Effect on: enzyme activity
# Mode: inhibitor
# Tested at: 1 µM
target,activity vs control
"PRKD3 (Homo sapiens, UniProt O94806)",99%
"CDC42BPB (Homo sapiens, UniProt Q9Y5S2)",115%
"PDK4 (Homo sapiens, UniProt Q16654)",95%
"ULK1 (Homo sapiens, UniProt O75385)",100%
"AXL (Homo sapiens, UniProt P30530)",94.5%

# Excerpt of the above (series 1):
target,test,remaining binding [%]
"Tyrosine-protein kinase ABL1, phosphorylated (ABL1, Homo sapiens, UniProt P00519, E255K)",binding,75
"ACVR2A (Homo sapiens, UniProt P27037)",cell-free assay,87
"Tyrosine-protein kinase ABL1, phosphorylated (ABL1, Homo sapiens, UniProt P00519, M351T)",cell-free assay,82
"PKMYT1 (Homo sapiens, UniProt Q99640)",cell-free assay,96
"CDK4 (Homo sapiens, UniProt P11802)",cell-free assay,96
"FLT3 (Homo sapiens, UniProt P36888, N841I)",cell-free assay,85
"RIOK3 (Homo sapiens, UniProt O14730)",cell-free assay,79
